Published values gathered from unrelated publications.
A part holds a random share of what one study measured.

Block 1 — technique: RNA Bind-n-Seq; molecule type: RNA; sample: in vitro; concentration: 200 nM; setting: whole 134-nt RNA, ends assumed; with: 150 mM LiCl; relative to: input library; reading: higher = stronger binding; measurement: log2 enrichment; library: 7-deaza-guanosine replaces G
Target: Ras GTPase-activating protein-binding protein 1, full length (G3BP1, Homo sapiens, UniProt Q13283)
UniProt Q13283, sequence (whole entry, looked up): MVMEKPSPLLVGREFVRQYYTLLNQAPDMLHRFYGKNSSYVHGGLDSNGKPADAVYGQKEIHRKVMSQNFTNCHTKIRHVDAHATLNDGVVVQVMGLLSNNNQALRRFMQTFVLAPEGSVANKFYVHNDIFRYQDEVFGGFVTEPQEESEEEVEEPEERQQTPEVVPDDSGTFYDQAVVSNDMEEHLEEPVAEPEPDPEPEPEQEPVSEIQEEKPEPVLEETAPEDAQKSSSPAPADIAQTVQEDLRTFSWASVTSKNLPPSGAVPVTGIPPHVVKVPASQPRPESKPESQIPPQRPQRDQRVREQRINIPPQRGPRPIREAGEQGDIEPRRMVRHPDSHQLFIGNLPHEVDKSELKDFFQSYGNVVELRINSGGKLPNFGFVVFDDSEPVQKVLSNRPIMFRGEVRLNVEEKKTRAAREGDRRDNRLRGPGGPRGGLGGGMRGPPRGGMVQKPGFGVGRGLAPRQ
Oligonucleotide = GGGAGUUCUACAGUCCGACGAUCGCCUGGCGCUGGCCAACAAUAGCACCCUCACCAUUGGCACCAUCGAUGAGAUCCAGAAGCUGCACAUUCGCACAGUUCCCCUCUAUGAGUUGGAAUUCUCGGGUGUCAAGG; result = 0.171
Oligonucleotide = GGGAGUUCUACAGUCCGACGAUCCACAGACAACACGCACCCACACAGAUACAGAGGGAAGGGGUUGGGAUGGGGACAGGGUGCACAGCAGGGCGGGGUAGGACCCCAGCCCCUUGGAAUUCUCGGGUGUCAAGG; result = 0.28
Oligonucleotide = GGGAGUUCUACAGUCCGACGAUCACCAUGCAGGUGGGCAUCUUUGGGAAGUGGGGCAAGGGGGGGAUAGGGAGGGGGGUAACACUUUGGGAACAGGUGGUCCCAGUUCGUUUCUGGAAUUCUCGGGUGUCAAGG; result = 0.345

Block 2 — technique: protein binding microarray; molecule type: double-stranded DNA, one strand shown; sample: in vitro; concentration: not given; relative to: not given; reading: higher = stronger binding; measurement: E-score
Target: Histone acetyltransferase KAT6A, winged helix 1, GST fusion (KAT6A, Homo sapiens, UniProt Q92794, residues 1-85)
Setting: 8-mer, flanks averaged, mean of 2 arrays, mostly near background
Target sequence (chain): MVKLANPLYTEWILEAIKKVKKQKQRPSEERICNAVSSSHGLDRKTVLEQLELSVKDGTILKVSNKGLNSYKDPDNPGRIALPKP
Oligonucleotide = ACACGGTA; result = 0.2
Oligonucleotide = ATCCCAAA; result = -0.182
Oligonucleotide = GCTTCCAC; result = 0.0962

Block 3 — technique: competition protein-binding microarray; molecule type: double-stranded DNA, one strand shown; sample: in vitro; concentration: 2 µM; with: Cbf1 competitor, 0.05 µM; reading: higher = stronger binding; measurement: fluorescence intensity
Target: Phosphate system positive regulatory protein PHO4, full length, GST-tagged (PHO4, Saccharomyces cerevisiae, UniProt P07270, residues 1-312)
Setting: whole 60-bp probe, lowest competitor level
Target sequence (chain): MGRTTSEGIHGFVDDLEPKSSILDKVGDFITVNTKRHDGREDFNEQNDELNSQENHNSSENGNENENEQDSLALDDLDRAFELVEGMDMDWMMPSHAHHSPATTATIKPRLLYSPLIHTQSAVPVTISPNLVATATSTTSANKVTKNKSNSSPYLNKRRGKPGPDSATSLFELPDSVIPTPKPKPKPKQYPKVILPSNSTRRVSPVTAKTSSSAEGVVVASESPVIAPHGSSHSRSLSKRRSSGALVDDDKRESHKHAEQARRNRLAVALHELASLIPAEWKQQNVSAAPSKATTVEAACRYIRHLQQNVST
Oligonucleotide = TACTTTTTCCGGTGGCCCGTGATGGGTTTGTAACAGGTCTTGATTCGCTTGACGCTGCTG; result = 6980 a.u.
Oligonucleotide = GTCTTGTCTCATTTTCACGTGAATTTCCCCACTTCAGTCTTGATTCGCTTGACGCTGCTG; result = 8620 a.u.
Oligonucleotide = GTCTTGTCTCATTGTCACAGCACTTTCCCCACTTCAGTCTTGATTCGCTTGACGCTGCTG; result = 4660 a.u.
Oligonucleotide = AAATTACTAAGTTGCAGGGTGGGTGACGCCGTATGAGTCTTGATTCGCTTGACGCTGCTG; result = 4730 a.u.
Oligonucleotide = AGGATCGTTGAGTACAGCGTGGGTAAATTTTTAGCGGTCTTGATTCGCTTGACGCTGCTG; result = 8350 a.u.
Oligonucleotide = TGTGTTAGAATACACAGCGTGCCGAGTTCCTGGTGCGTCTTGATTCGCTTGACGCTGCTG; result = 8440 a.u.
Oligonucleotide = CGGGGTTAAGTTTGTCACTATACTTGCTTGCAGCAGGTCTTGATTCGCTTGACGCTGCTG; result = 3940 a.u.

Single results of other studies
Molecule = PhoQ, residues 284 288 289 292 302 303 GNNTDL; target = PhoP, residues 12 14 15 18 19 SQCLL (Escherichia coli, UniProt P23836); assay = Sort-seq, item: YFP reporter; test system = E. coli; conditions = PhoQ-PhoP variant library, with: 10 µM Mg2+; how to read = relative to: high Mg2+ state, higher = stronger signaling; measurement = fold induction; result = 2.31

Repeated from above (block 3):
Oligonucleotide = TACTTTTTCCGGTGGCCCGTGATGGGTTTGTAACAGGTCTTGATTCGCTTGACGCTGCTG; result = 6980 a.u.
Oligonucleotide = TGTGTTAGAATACACAGCGTGCCGAGTTCCTGGTGCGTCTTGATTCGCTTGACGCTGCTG; result = 8440 a.u.
